Measured values collected from several papers.
Every numbered part comes from another study and shows a few of its results, in no order. Changes are numbered by the printed parent chain.

Set 1 — method: aptamer microarray, sandwich; molecule type: DNA with 2'F-ANA; medium: in vitro; concentration: 200 nM; added: Cy3 exosite-II aptamer, 400 nM; direction: higher = stronger binding; sequence: GGTTGGTGTGGTTGG
Target: Prothrombin, mature alpha-thrombin (F2, Homo sapiens, UniProt P00734)
Notes: whole 15-mer aptamer, many near background
Modification	mean fluorescence intensity
2'F-ANA at 2 4 7 8 9 12	683 a.u.
2'F-ANA at 2 3 4 7 9 10 12 13 14	195 a.u.
2'F-ANA at 1 4 8 9 10 14 15	45.5 a.u.
2'F-ANA at 1 2 5 8 11 12 13	97.2 a.u.
2'F-ANA at 1 2 3 5 6 8 9	71.6 a.u.
2'F-ANA at 1 2 3 4 5 6 7 8 10 11 12 13 15	73.8 a.u.
2'F-ANA at 1 2 3 4 5 7 8 9 10 13	48.9 a.u.
2'F-ANA at 1 4 6 8 10 12 14	63.3 a.u.
2'F-ANA at 1 2 4 5 6 8 11 12 15	84.3 a.u.
2'F-ANA at 1 5 6 7 10 11 12 13 14	65.2 a.u.
2'F-ANA at 4 6 7 8 10 11 12 14 15	57.1 a.u.
2'F-ANA at 2 3 4 5 6 7 9 12 13 14 15	49.2 a.u.
2'F-ANA at 3 6 7 8 14 15	555 a.u.
2'F-ANA at 1 3 4 5 7 8 11 12 13	75.9 a.u.
2'F-ANA at 6 10 12 13 14	118 a.u.
2'F-ANA at 2 3 7 9 10 11	385 a.u.
2'F-ANA at 1 2 3 4 7 8 9 10 11 12 15	90.7 a.u.
2'F-ANA at 3 9 10 12 13 14	407 a.u.
2'F-ANA at 1 2 5 6 9 10 11 13 15	45.5 a.u.
2'F-ANA at 1 2 3 5 6 9 10 13 14 15	49.5 a.u.

Set 2 — method: universal PBM; molecule type: double-stranded DNA, one strand shown; medium: in vitro; concentration: not given; direction: higher = stronger binding
Target: Sal-like protein 4, full length isoform B (SALL4, Homo sapiens, UniProt Q9UJQ4-2, residues 1-616)
Notes: 8-mer, flanks averaged, mean of replicates
Sequence	E-score
CTAGACTC	-0.0961
CTGTCCTC	-0.214
GCCCTATA	0.145
GCCTCTAC	-0.177
CCCTTGCA	-0.213
AGGCGGGC	-0.239
GCTGAGGA	-0.15
CTTTCTCC	-0.182
ATCCGGTA	-0.185
GCGGGAAC	-0.369
AGGCTAGC	-0.00154
ATTAAGCC	0.179
GCTACGCA	-0.146
AGAACACA	0.0213
AATAGAAC	0.266
AATGGTCA	0.126
GACTGAAA	0.0472
CAGGTAAG	0.0449
GATTTGAA	0.224
CTTCCGAA	-0.027

Set 3 — method: protein-binding microarray; molecule type: double-stranded DNA, one strand shown; medium: in vitro; concentration: 250 nM; notes: 60-bp whole probe; added: salmon DNA 0.4 mg/ml; reference: random background probes; direction: higher = stronger binding; all sequences stand within: GCCTAGCAC … GTCTTGATTCGCTTGACGCTGCTG
Target: Interferon regulatory factor 5, full length, phosphomimetic (IRF5, Homo sapiens, UniProt Q13568-2, residues 1-514, K96S/S451D/S453D/S456D/S462D)
Sequence	log fluorescence [z-score]
TTAGAACTTGGGACTGGATTAGTGCTA	-0.114
ATAGGTTTCGGTCTCGGTTAGTGCTAG	10.1
TTAGGTCTCCTTCTCGTTTAGTGCTAG	0.119
TTAGATTTCGGGGCTGGATTAGTGCTA	2.2
ATGTTTGTCACTCTCAGAATGTGCTAG	0.712
GACGGTTTCGGGTATCGGGACGTGCTA	7.66
GACGATCTCAGACGGGAGACGTGCTAG	-0.364
GACGATCTCAGTTTCGAGAAGTGCTAG	5.24
TTAGGACTGGGTACCGGTTAGTGCTAG	-0.335
ATAGGTCTCCTTTTCCTTTAGTGCTAG	0.111
GACGATTTCGGGACAGGAGACGTGCTA	2.09
GAAGGTATCGGGTTTCGGGACGTGCTA	4.66
TCAGTTTTTATTTTCTGACTGTGCTAG	1.64
GACGATCTCGGACTGGAGACGTGCTAG	-0.131
GACGGACTGGGGTTTCCGGACGTGCTA	-0.472
TTTCCTATGTCATTTACATTGTGCTAG	2.57

Set 4 — method: RNA Bind-n-Seq; molecule type: RNA; medium: in vitro; concentration: 365 nM; reference: no-protein control; direction: higher = stronger binding
Target: RNA binding protein fox-1 homolog 2, RRM domain, GST-SBP tag (RBFOX2, Homo sapiens, UniProt O43251-10, residues 100-194)
Notes: natural RNA segment, single round, ends assumed
All sequences stand within: GGGAGUUCUACAGUCCGACGAUC … UGGAAUUCUCGGGUGCCAA
Residues (chain): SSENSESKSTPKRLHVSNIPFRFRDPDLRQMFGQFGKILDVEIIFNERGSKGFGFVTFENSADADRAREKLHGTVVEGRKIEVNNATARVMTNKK
Sequence	RBNS enrichment (R)
UAAGUGUGUGAUACAGUUUGUUACUUUUAAGUACAUUUUAAUAAUUUCAGACAUCUGCAUUUUUAUUGAACAGUUGACUGUAUCUGACCCAUCAUACUACUAUACUUCUG	0.345
ACUUAAGAAUACUCCUGGCAUAAGUUACUAGAAGUGGUGUGUAUAUAUUCGGGGGAGUAAGGAAAUAAGUUAUGUUUAAUAAUAGCUUAAGAUGACCAGCAAUGCCUGUA	1.12
GUAUUUUGAGUGUUCUUCUUUCUUAGACCCACCCGCGGGAACCGUUCACAGGUACCCUCCCUCGGGCCCUUUUGAUUCUGGGAGUUAGGUUGUGUUUUAUGUUCUUAGAG	0.919
CAAUGACAUUGUAUAAAGGGUGGUCUCAUAAGAUUAUACCAUAUUUUUACUGUACCUUUUCUAUGUCUAAAUAUACAAAUGUUUUACCAUUGUGUUACAGUUGCCUACAG	0.351
GCAACAGUGGCCCGUGCCAAAGCACUUACCAAAGUGAUGAUGACUAAGGCCCUGUCAUUAAUUCCAUGUGUCAAUACUGCCCUGUAGUACACAGAGCAGACAAGAAAGAA	0.247
GCUGGUCUUUGUCGCCUAAUUAGGGUAUCCUAGCUAUGUUCCAUUUCUAGUAAGGGGCUGUAGUUAGAUGACUCUUGUAUAGAUUUCAGUUACUUAUGCUGAAGAUCCCU	0.209
ACAGUUAUGUGGUGGGUCCCUGCUAAAAUCUCCCUGACCACCUGAGGGCAUAAAGCAUGUGUCUUAUCUCUGGUCUCAUGGUGAUCUUUGCUGGGGAGACAAUGUGGGAU	2.59
CUUGGAGAAUCUGUUUUCAAUCUCCACUGAUUGCCCCCUUGCUGGCCAGCCCAGGGGCCUUUACCAUGUUCUCUCCACAUCCGUAAAUAAACUUCCUUCACUACACUGUA	0.334
CUUUAUAGUAUUUGAAAAUGAGAAGAAGCAGCAGAUUGUAAUUUGGUUUAUUGGAUGUGAUGGACGUUCUGUAAUAGAAAACCUGAAACGAUGAUUGAAUGGGAAAAAGA	1.13
ACCUUAGGUGGGCACAGGAGGGCCGAGCUUGUUUCUACCCACUGGCAGCUGCUGACUCAACUCUGGGCUCCCUGCCAUCUGUGGAGUACUUUUUUCCUGUUGUGUUGAAU	0.593
GUGUCCGGGUGCUCAGCUCCUGGGUCCCAGGGCAGUGGGACAGCUCCCAGGCUCUUCUCAUCAGAGACUUCAGUUUGGGUGGGGAGUCUGCAGGUCAGGGAAGGUUCUGG	0.601
GGCUCCGUGGCUGCCUGCUACUAGCCCUGAGUUCUUAAUGGGCUCUGGAGAGCACCUCCAUUAUCUCCUCUUGAAAGUUCCUAGCCAGCAGCGCGUUCUGCGGGGCCCAC	0.406

Set 5 — method: protein binding microarray; molecule type: double-stranded DNA, one strand shown; medium: in vitro; concentration: not given; reference: not given; direction: higher = stronger binding
Target: Histone acetyltransferase KAT6A, both winged helices, GST fusion (KAT6A, Homo sapiens, UniProt Q92794, residues 1-181)
Notes: 8-mer, flanks averaged, mean of 2 arrays, mostly near background
Construct (chain): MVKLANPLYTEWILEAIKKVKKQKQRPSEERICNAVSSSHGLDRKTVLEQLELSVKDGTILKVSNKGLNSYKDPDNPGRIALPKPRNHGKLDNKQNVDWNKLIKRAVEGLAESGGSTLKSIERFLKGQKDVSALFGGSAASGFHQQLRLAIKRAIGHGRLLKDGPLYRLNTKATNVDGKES
Sequence	E-score
AGTTCCAT	-0.0761
TCCATAAA	-0.202
AGACTGTC	-0.0707
AGAACGCG	0.302
CAACCCTA	-0.165
CGCCTCGC	0.197
AGACGCAA	0.138
ACCCGCGG	0.372
AAAAAGGT	-0.24
ATGGGTGG	-0.233
ACCGTGAC	0.1
AACCAACA	-0.115
ACTCCTAT	-0.238
CAGACCAA	-0.215
CAAGCATA	-0.185
AGCGAACG	0.138
TAACATAA	-0.0212
GTTGCACA	-0.109
ACGCGACG	0.261
CCTACTTA	-0.214
ACAAACTC	-0.0639
ACAACTCA	-0.125

Set 6 — target: CCNB1, cyclin fold, Cln2 fusion (human); method: yeast growth competition, sequencing; medium: yeast; notes: weak parent motif; reference: not given; direction: higher = stronger binding
Starting sequence: DBF4B docking peptide (human); LGYLYLLLTQSLW
Variant	normalised enrichment score
S11A	0.444
L8A	0.965
L4A	0.154
Y3A	0.0778
L6A	-0.15
L12A	0.293
G2A	0.371

A few entries again (set 1):
Modification	mean fluorescence intensity
2'F-ANA at 4 6 7 8 10 11 12 14 15	57.1 a.u.
2'F-ANA at 2 3 4 5 6 7 9 12 13 14 15	49.2 a.u.
2'F-ANA at 3 6 7 8 14 15	555 a.u.
2'F-ANA at 1 3 4 5 7 8 11 12 13	75.9 a.u.
2'F-ANA at 6 10 12 13 14	118 a.u.
2'F-ANA at 2 3 7 9 10 11	385 a.u.
2'F-ANA at 1 2 3 4 7 8 9 10 11 12 15	90.7 a.u.
2'F-ANA at 3 9 10 12 13 14	407 a.u.
